Results of several laboratories.
A part holds a random share of what one study measured.

Set 1 — method: universal PBM; molecule type: double-stranded DNA, one strand shown; sample: in vitro; tested at: not given; direction: higher = stronger binding; quantity: E-score
Target: Sal-like protein 4, full length isoform B (SALL4, Homo sapiens, UniProt Q9UJQ4-2, residues 1-616)
Setting: 8-mer, flanks averaged, mean of replicates
CATTGTTC: 0.0383
ACCAAAGG: -0.0924
GCCTCAAA: -0.189
ATGATCCG: -0.08
CGGCGGGA: -0.431
GCCACGAA: -0.156
AGCCTTGC: -0.319
CGTGTTGA: 0.018
ACCAGGAG: -0.227
ACCTGTTA: 0.0749
GTAACGAC: -0.211
CCCTAGCC: -0.243
CAGAGCGC: -0.331
ATGGCCGA: -0.145
TGCAAGAA: 0.045
CCCCGTCG: -0.346
GCTTGACC: -0.207
ACCTACTG: -0.0111
CTAGTGGA: -0.201
GATAGTAA: 0.197
AAACATTA: 0.33
ATATTGCG: 0.326
AGCTTCAC: -0.0353
TCGAATAA: 0.222
AGAAAAAG: -0.0915

Set 2 — method: aptamer microarray, sandwich; molecule type: DNA with 2'F-ANA; sample: in vitro; tested at: 200 nM; added: Cy3 exosite-II aptamer, 400 nM; direction: higher = stronger binding; quantity: mean fluorescence intensity; oligonucleotide: GGTTGGTGTGGTTGG
Target: Prothrombin, mature alpha-thrombin (F2, Homo sapiens, UniProt P00734)
Setting: whole 15-mer aptamer, many near background
2'F-ANA at 1 4 6 7 8 9 11 13 14 15: 49.1 a.u.
2'F-ANA at 2 3 4 6 7 8 9 11: 547 a.u.
2'F-ANA at 4 6 7 9 11 14: 71.5 a.u.
2'F-ANA at 1 2 4 5 6 7 9 12 13: 65.8 a.u.
2'F-ANA at 2 4 5 6 9 11 13 14 15: 52.8 a.u.
2'F-ANA at 1 4 5 8 10 11 15: 49.7 a.u.
2'F-ANA at 5 6 7 8 9 14 15: 46.7 a.u.
2'F-ANA at 3 4 5 6 7 8 9 10 11 14: 44.4 a.u.
2'F-ANA at 6 8 10 13 14: 100 a.u.
2'F-ANA at 1 5 9 10 14 15: 48.3 a.u.
2'F-ANA at 2 6 7 12 14 15: 168 a.u.
2'F-ANA at 4 5 6 11 12: 126 a.u.
2'F-ANA at 2 4 5 12 15: 151 a.u.
2'F-ANA at 5 7 8 10 11 13 14: 46.5 a.u.
2'F-ANA at 3 5 6 9 10 12 13: 54.3 a.u.
2'F-ANA at 2 4 6 9 10 12 13: 135 a.u.
2'F-ANA at 3 4 5 6 8 14 15: 51.1 a.u.

Set 3 — method: protein binding microarray; molecule type: double-stranded DNA, one strand shown; sample: in vitro; tested at: not given; relative to: not given; direction: higher = stronger binding; quantity: E-score
Target: Histone acetyltransferase KAT6A, winged helix 2, GST fusion (KAT6A, Homo sapiens, UniProt Q92794, residues 85-181)
Setting: 8-mer, flanks averaged, mean of 2 arrays, mostly near background
Construct (chain): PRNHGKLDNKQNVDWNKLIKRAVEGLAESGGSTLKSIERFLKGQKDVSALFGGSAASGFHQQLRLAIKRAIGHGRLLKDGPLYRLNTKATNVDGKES
GATAGTGA: 0.0249
CAGTTGGA: -0.0426
AGAGAGGC: -0.131
ACTGACGA: -0.0236
CCCATGCC: 0.0493
CATTTGGG: -0.00451
AGGCCCGG: -0.115
GTTTCCTA: -0.0318
AACGGGGC: 0.00423
GTATAAAA: 0.211
CCGAAAGC: -0.0448
TGCCCACA: 0.0213
TCTCCGAA: 0.0622
ATGCCGTG: 0.0819
AAAGCGAT: 0.0635
CGAGAGAA: 0.16
ATGTTCAC: -0.0865
ACGGCTGG: -0.00915
AAGTACGT: -0.0777

Set 4 — method: RNA Bind-n-Seq; molecule type: RNA; sample: in vitro; tested at: 365 nM; relative to: no-protein control; direction: higher = stronger binding; quantity: RBNS enrichment (R)
Target: RNA binding protein fox-1 homolog 2, RRM domain, GST-SBP tag (RBFOX2, Homo sapiens, UniProt O43251-10, residues 100-194)
Setting: natural RNA segment, single round, ends assumed
Shared flanks, not repeated: GGGAGUUCUACAGUCCGACGAUC … UGGAAUUCUCGGGUGCCAA
Residues (chain): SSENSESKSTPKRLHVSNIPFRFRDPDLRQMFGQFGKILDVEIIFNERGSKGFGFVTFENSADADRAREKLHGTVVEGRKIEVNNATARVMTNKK
ACUGCUUUAUUACACACUGGUUUCAUUGUCAUUGCAAAAACUUACCCUGGUUGUGGGGGAGAGUUCUAGAUCUGUGCCAUGAUCCAUACACUGGCUAAUAGAGUACAUAA: 0.362
UCUCUCUGGGUUUGGACAUGAAAUGUAAGAAAAGAUUUUUCACUGGAGCAGCUCUCUUAAGGAGAAACAAAUCUAUUUAGAGAAACAGCUGGCCCUGCAAAUGUUUACAG: 0.696
CAAAAAUCAACAAUGCACAACUUACAAAGUGUUCAUUCUAGGGACAAAAUUAAAUAAACAGAAUGUCCCCAGGAGUCAGCAGGUCACAGUCUGGCUUUGUGAUGGUUGAC: 0.449
CAUUUUCUCAUGAGUCUCCAAGCCCACUUGAAAAGUCACACUGAAAGGAUGCAAAUAGCCGUCUGCGAUUUUGGCGGCCCUCCGGAUUGUGGUGACAAUAUGUUGUACCC: 0.239
UCCGCUCCCCCCACAUCCCAGCCUGGACUUCUCCUGAGUAUGGGGCUUUUUCUGGCAGCCAGAAGCCAAUGCUUAUGCAGGCUCCCGCAUCUCAGCCAGAGGCCAGAUGU: 0.525
UUGGUGCCAGUCCCUCAGUCCCACCUCUUUACUCGGACCAUGGACCCUGCCACUGCCAGCUCUUAGUACAGUCCCAACUACCGUAGACCAGGUGACAUUUGUUGACACCA: 0.425
UGAAGACACUGAAAUACAGACUUAAAUAGCUCAGAUAGCUAAUUAGGAAAUUUCAAGUUGGCCAAUAAUAGCAUUCUCUCUGACAUUUAAAAAUAAUUUCUAUUCAAAAU: 0.637
GGUGUGGAUAAGGAAGGCUCCAGCGUCCGGGGCACUGCCCUUCCAGCAAGUUCCAAGCGCACUUUUGCAUUUGCCGAGCAGACUUUUGCAGAGCCGGUGGCAGAAGCAGU: 0.32
CGUCCUUCAGCGAGCUCUACCUGCCGUCCACUAGAGCCAGGUACCCAUACGAGGAGCCCACCGUCCCUGUCCCUCGAGGUCACGUCCCACCGCUGCACUAAGGACUCACG: 0.462
UGGGCUGGGAACUGACAGAGGAGCCUGCUGGGCUAGGAGUGGGGGACACUGGCCUCUUAGUGCCCGGCUGCCGAGCUCUUGGCCUUGUCCCCUGGGGCAUCUCUGUCCCC: 0.273
UGUGGACUCUUGGCCCAGGAAUCCACAAUAAUAGCUAGUGGUAGAAUUGGGAUGUAGCCUGAUUAUAUAGAUUCCAAGGUAGUCCUCUGUCUAUCCUAAAAGUAGAUUAG: 0.458
UUGGGCCCCCUGUUCUUUCUUUCCCAUUAACUUGAGUGACCUGUGUGAGAGACAGACAGAUGCCCCACGAGGAUGGCUGGACAAGGACUUUUACUUUUUAUUACAUAAAA: 0.407

Set 5 — method: protein-binding microarray; molecule type: double-stranded DNA, one strand shown; sample: in vitro; tested at: 940 nM top; setting: 60-bp whole probe; added: salmon DNA 0.4 mg/ml; relative to: random background probes; direction: higher = stronger binding; quantity: fitted relative affinity; shared flanks, not repeated: GCCTAGCAC … GTCTTGATTCGCTTGACGCTGCTG
Target: Interferon regulatory factor 5, full length, phosphomimetic (IRF5, Homo sapiens, UniProt Q13568-2, residues 1-514, S451D/S453D/S456D/S462D)
TTAGGACTGGGTATCGGTTGGTGCTAG: 3.52 z-score
GACAGACTGCTACTGCTGACGTGCTAG: -0.584 z-score
TCATTTCTCTGCTACCCTACTGTGCTA: 1.93 z-score
AACGATATCAGACTGGAGACGTGCTAG: -0.121 z-score
TTAGGTTCCCCTTTCCTTTAGTGCTAG: 0.85 z-score
TCATAAACCATTTTGGTACTGTGCTAG: -0.46 z-score
GACGGTCTCCAACTGCTGACGTGCTAG: -0.387 z-score
GACGGTCTCGGTTTCGGTACGTGCTAG: 8.79 z-score
TTAGATTTCAGTTTCGATAAGTGCTAG: 8.54 z-score
TCATCTCTTATTCTAACACTGTGCTAG: 1.01 z-score
GACGGTTTCCTACTGCTGCCGTGCTAG: 0.892 z-score
GGGAGATGACTAAGAGGGGTGTGCTAG: -0.311 z-score
GACGGTTTCCTTAGCCTGACGTGCTAG: 0.86 z-score
TTAGAACTGAGGCTCGATTAGTGCTAG: -0.446 z-score
GACGGTATCGGGACTGGGGTCGTGCTA: 4.08 z-score
GGAAGCAGTGAGAAGGTGGCGTGCTAG: -0.492 z-score
CAAATACTCTTCCATGGAGAAGTGCTA: -0.156 z-score
TTAGACCTCAGTTTCGATTAGTGCTAG: 7.57 z-score
TTAGGAATCGGTTTCGGTTAGTGCTAG: 9.1 z-score
TACGGTATCGGGACTGGGGACGTGCTA: 2.66 z-score
GACGGTATACTTATCCTGACGTGCTAG: -0.282 z-score
TAAGGTATCGACTATCGGTTAGTGCTA: 3.88 z-score
GAGCTCCTCCTTCTCTAACCGTGCTAG: 0.197 z-score
TTAGGTTTCAGTTCCGATTAGTGCTAG: 7.39 z-score

Repeated from above (set 3):
CCCATGCC: 0.0493
ACTGACGA: -0.0236
ATGTTCAC: -0.0865
GATAGTGA: 0.0249
CAGTTGGA: -0.0426
GTTTCCTA: -0.0318
CCGAAAGC: -0.0448
ATGCCGTG: 0.0819
AAAGCGAT: 0.0635
AAGTACGT: -0.0777
